# Assay results of several laboratories.
# Lines come from different studies, so protocols differ.
Structure (SMILES),system,conditions,Tmax
CSCC[C@H](NC(=O)CNC(=O)[C@H](CC(=O)O)NC(=O)[C@@H](NC(=O)[C@@H](NC(=O)[C@@H](NC(=O)CNC(=O)[C@H](CCC(N)=O)NC(=O)[C@H](CCSC)NC(=O)[C@H](CC(=O)O)NC(=O)[C@H](C)NC(=O)[C@H](C)NC(=O)[C@@H](NC(=O)[C@H](CO)NC(=O)[C@@H](N)CC(C)C)[C@@H](C)O)C(C)C)C(C)C)[C@@H](C)O)C(=O)N[C@@H](C)C(=O)N[C@@H](CO)C(=O)NCC(=O)N[C@@H](CC(C)C)C(=O)N[C@@H](CC(=O)O)C(=O)N[C@@H](CCCCN)C(=O)N[C@@H](CC(=O)O)C(=O)N[C@@H](Cc1ccc(O)cc1)C(=O)N[C@@H](CC(C)C)C(=O)N[C@@H](CCCCN)C(=O)N1CCC[C@H]1C(=O)N[C@@H](CC(=O)O)C(=O)N[C@@H](CC(=O)O)C(=O)O,"human, serum","intravenous, 0.83 mg/kg, patients, infusion",0.17 h
CC[C@H](C)C(=O)N1CCC(NC(=O)Nc2ccc(OC(F)(F)F)c(F)c2)CC1,"human, plasma","oral, 8 mg, single dose, fasted",4.25 h
C[C@H](CCC(=O)N[C@@H](CCCCNC(=O)C(F)(F)F)C(=O)O)[C@H]1CC[C@H]2[C@@H]3[C@H](O)C[C@@H]4C[C@H](O)CC[C@]4(C)[C@H]3C[C@H](O)[C@]12C,"C57BL/6J mice, liver","oral, 50 mg/kg",1 h
[2H]C([2H])([2H])C([2H])([2H])C([2H])([2H])OC(C(=O)OC1CCNCC1)(c1ccccc1)c1ccccc1,"male human, plasma","oral, 15 mg, multiple doses",3.4 h
CC[C@@H]1C[C@]1(NC(=O)[C@@H]1C[C@@]2(CN1C(=O)[C@@H](NC(=O)[C@@H](NC(=O)[C@@H]1CCCCN1C(C)C)C1CCCCC1)C(C)(C)C)C(C)(C)C21CCC1)C(=O)NS(=O)(=O)N1CCCC1,"human, plasma","oral, 100 mg, single dose, fed",~2 h
Cc1ccc2c(n1)c(-c1cccc(S(C)(=O)=O)c1)c(C)n2C/C(F)=C/CN,"healthy male volunteers, plasma","oral, dose not given, day 1, multiple ascending dose",3 h
COc1cc(NC(=O)C(=O)c2c(C)n(Cc3ccc(Cl)cc3)c3ccc(C)cc23)ccn1,"male cynomolgus monkey, plasma","oral, 10 mg/kg",3.2 h
CC(C)(CCCC/C=C/CCCCCC(C)(C)C(=O)O)C(=O)O,"beagle dog, plasma","oral, 5 mg/kg",0.25 h

# Repeated from above:
Structure (SMILES),system,conditions,Tmax
C[C@H](CCC(=O)N[C@@H](CCCCNC(=O)C(F)(F)F)C(=O)O)[C@H]1CC[C@H]2[C@@H]3[C@H](O)C[C@@H]4C[C@H](O)CC[C@]4(C)[C@H]3C[C@H](O)[C@]12C,"C57BL/6J mice, liver","oral, 50 mg/kg",1 h
